Assay results collected from several papers.
Numbered parts are unrelated; each lists some results of a single study.

Sample 1
Target: Phosphate system positive regulatory protein PHO4, full length, GST-tagged (PHO4, Saccharomyces cerevisiae, UniProt P07270, residues 1-312)
Method: competition protein-binding microarray
Form: double-stranded DNA, one strand shown
Sample: in vitro
Tested at: 2 µM
Notes: whole 60-bp probe, lowest competitor level
With: Cbf1 competitor, 0.05 µM
Direction: higher = stronger binding
Constant ends, left off below: … GTCTTGATTCGCTTGACGCTGCTG
Target sequence (chain): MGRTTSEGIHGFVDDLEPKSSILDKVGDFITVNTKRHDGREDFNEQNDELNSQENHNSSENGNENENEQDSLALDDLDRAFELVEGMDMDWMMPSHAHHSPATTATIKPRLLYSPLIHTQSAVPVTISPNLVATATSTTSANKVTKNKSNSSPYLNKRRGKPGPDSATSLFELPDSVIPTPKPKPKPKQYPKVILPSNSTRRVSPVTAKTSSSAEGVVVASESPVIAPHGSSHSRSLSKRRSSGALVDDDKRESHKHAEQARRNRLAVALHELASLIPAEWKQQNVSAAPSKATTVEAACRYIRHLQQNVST
Oligonucleotide	fluorescence intensity
AGGGAACAGTGCCTACACGTGGCTTGCAATCCACTA	15000 a.u.
ATTAGCTAGAATAATCGCGTGTGTTGTCTTGGCTGG	7950 a.u.
ATCGCTTCCTCCTCCTACATGACAGAGCTGGTACGC	3510 a.u.
TGCACGGAGTCTTAAAACACTCCGATTTGGATACCT	5140 a.u.
AAAGCGGTAATTTGGTCGGTGGGTGCAGATATCTAT	4200 a.u.

Sample 2
Target: human cyclin A2
Read-out: peptide binding
Method: competitive growth sequencing
Form: peptide
Organism: Saccharomyces cerevisiae
Strain: cyclin A2-Cln2 fusion strain
Tested at: concentration not given
Notes: peptide tiling library
Reference: unfused Cln2 strain
Direction: direction not given
Sequence	binding score
VKTKKRLNFDDK	2.61
QNPCGSKACRRLFGPV	2.49
KRRLDLETDHQY	2.68
PQWPCGKHKRVLIFAS	0.55
SPPRGRRLFPPGPAGF	-0.18

Sample 3
Target: RING finger protein unkempt homolog, zinc fingers 1-6, GST-SBP tag (UNK, Homo sapiens, UniProt Q9C0B0, residues 30-357)
UniProt Q9C0B0, sequence (30-357, looked up): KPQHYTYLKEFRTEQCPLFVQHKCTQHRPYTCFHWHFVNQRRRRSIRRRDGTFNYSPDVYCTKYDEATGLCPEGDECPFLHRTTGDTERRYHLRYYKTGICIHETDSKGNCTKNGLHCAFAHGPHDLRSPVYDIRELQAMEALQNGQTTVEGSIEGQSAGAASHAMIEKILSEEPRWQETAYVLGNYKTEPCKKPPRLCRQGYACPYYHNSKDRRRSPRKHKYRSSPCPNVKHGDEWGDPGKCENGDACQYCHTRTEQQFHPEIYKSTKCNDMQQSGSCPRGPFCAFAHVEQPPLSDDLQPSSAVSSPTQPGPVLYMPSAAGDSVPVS
Method: RNA Bind-n-Seq
Form: RNA
Sample: in vitro
Tested at: not given
Notes: RNA with constant flanks, human and mouse sites, ends assumed
Reference: input RNA pool
Direction: higher = stronger binding
Constant ends, left off below: GGGAGUUCUACAGUCCGACGAUC … CAACAGAGGAUUGAGCAUCA
Oligonucleotide	bound/input enrichment [ratio]
ACAUCUCCAGCAGCAGACAACAUAGAAAAGGAGGCGCUUCCUCGUUAUGAGCCAAUUCCAUUUAGUGCUUCUAUGAACGAGUCCACUCCCACUGGUAUUACUGACCAUAUUGCCCAAGGA	0.427
UAACAAUAUAUGAUAUAUAAACCUUAAAUGAAAAAAAUGAUCUAUUGCAGAUAUUUGAUGUAGUUUUCUUUUUUAAAUUAAUCAGAAACCCCACUUCCAUUGUAUUGUCUGACACAUGCU	6.09
UAUGAAGUGUACAGCUCCUCAGCAGGCCCUGCGGUCAGACACAAGUGCCUUAGAGCAAUUCUUAGGAUAAUUUAUUUUGCUGAUGCUGAACUUCUGAAGGAUGUUCUGAAAAAUCAUGCU	17.8
GUGGCUCACCAUGCUUCUGAAAACAACAGGAUUUUCACUUUGAAUCUAUCUGCACCGUUUAUUAGCCAGUUCUACAAGGAAUCAUUGAUGAAAGUUAUGCCUUAUGUUGAUAUACUUUUU	0.225
GAAUGUAUCUCACCUACAUACAAGACUGGACCAUCACUGCACAGGGAAUAUGGUAGCACAUCUUCAAUUGAUAAACAGGGAACAUCUGGAGAAAGCUUUUUUGAUUUGUUAAAGGGCUAC	0.293
UGAGAUGGCACAGCAUAGGAGACUGAAGUGUGAAAGAAGUCAUAAGAAGGCUUCCUGAGGACUUUGAGGCAACAGAGUGUUGCGUUAAGACCUGACCAUGAGGCAUCAGGCCAUGCCUGC	0.103
AUAUAUUGUAACAGAAUGUAUAAAUAUUUUUGAUAAAACAGUCUAUAUUUUAUUAAAAAAUGAAUUAUAACACUAAAGCUGUACCUCAAAAGUCUCAAAAAUAAUUUGAUGAAAUAUUUU	0.31

Mixed results
Substance	target	assay	system	setting	scale	quantity	result
PhoQ, residues 284 288 289 292 302 303 ALAMYF	PhoP, residues 12 14 15 18 19 AGCRL (Escherichia coli, UniProt P23836)	Sort-seq, item: YFP reporter	E. coli	PhoQ-PhoP variant library, with: 10 µM Mg2+	reference: high Mg2+ state, higher = stronger signaling	fold induction	1.64

Excerpt of the above (mixed results):
Substance	target	assay	system	setting	scale	quantity	result
PhoQ, residues 284 288 289 292 302 303 ALAMYF	PhoP, residues 12 14 15 18 19 AGCRL (Escherichia coli, UniProt P23836)	Sort-seq, item: YFP reporter	E. coli	PhoQ-PhoP variant library, with: 10 µM Mg2+	reference: high Mg2+ state, higher = stronger signaling	fold induction	1.64
